Measured values pooled from the literature.
Each numbered part is a random draw from the data of one study; scales do not carry over between parts. Substitutions count along the parent as printed.
Sequence of UniProt Q00535 (whole entry, looked up): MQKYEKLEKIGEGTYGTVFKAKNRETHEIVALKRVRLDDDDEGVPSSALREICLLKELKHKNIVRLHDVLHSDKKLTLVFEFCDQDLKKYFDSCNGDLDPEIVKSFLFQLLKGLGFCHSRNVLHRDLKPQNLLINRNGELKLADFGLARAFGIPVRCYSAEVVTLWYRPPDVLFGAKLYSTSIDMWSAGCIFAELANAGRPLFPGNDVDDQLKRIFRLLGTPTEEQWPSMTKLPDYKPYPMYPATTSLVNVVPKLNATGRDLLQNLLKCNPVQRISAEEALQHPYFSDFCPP

Sample 1
Target: UBE2D2 UBC core domain (UniProt P62837)
Sequence of UniProt P62837 (whole entry, looked up): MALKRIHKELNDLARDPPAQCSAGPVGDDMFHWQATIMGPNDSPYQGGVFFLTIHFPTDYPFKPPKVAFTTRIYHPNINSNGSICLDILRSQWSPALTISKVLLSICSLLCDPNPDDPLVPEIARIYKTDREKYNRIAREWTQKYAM
Method: yeast two-hybrid
Matrix: yeast
Setting: mostly zero background
Baseline: not given
Direction: higher = stronger interaction
B1: RMND5B RING domain (UniProt Q96G75); chain MKCWYHSVFACPILRQQTSDSNPPIKLICGHVISRDALNKLINGGKLKCPYCPMEQNPADGK
B2: RNF32 RING domain (UniProt Q9H0A6); chain VQALRRETHECSICLAPLSAAGGQRVGAGRRSREMALLSCSHVFHHACLLALEEFSVGDRPPFHACPLCRSCYQKKILEC
B3: MDM2 RING domain (UniProt Q00987); chain TQDKEESVESSLPLNAIEPCVICQGRPKNGCIVHGKTGHLMACFTCAKKLKKRNKPCPVCRQPIQMIVLTYFP
B4: PJA2 RING domain (UniProt O43164); chain DHTAIGQEQCCPICCSEYIKDDIATELPCHHFFHKPCVSIWLQKSGTCPVCRRHFPPAVIEA
B5: ARIH1 RING domain (UniProt Q9Y4X5); chain NTRSSAQDMPCQICYLNYPNSYFTGLECGHKFCMQCWSEYLTTKIMEEGMGQTISCPAHGCDILVDDNTVM
Sequence	lacZ reporter activity
B1 (RMND5B RING domain)	10900
KITELNPHLMCALCGGYFIDATTIVECLHSFCKTCIVRYLETNKYCPMCDVQVHKTRPLL (PCGF2 RING domain (UniProt P35227))	0
B2 (RNF32 RING domain)	0
FLSKVEETFQCICCQELVFRPITTVCQHNVCKDCLDRSFRAQVFSCPACRYDLGRSYAMQ (UHRF1 RING domain (UniProt Q96T88))	0
B3 (MDM2 RING domain)	0
B4 (PJA2 RING domain)	2180
B5 (ARIH1 RING domain)	0
AAQLLEEKLTCAICLGLYQDPVTLPCGHNFCGACIRDWWDRCGKACPECREPFPDGAELR (TRIM65 RING domain (UniProt Q6PJ69))	0

Sample 2
Target: CCND3, cyclin fold, Cln2 fusion (human)
Method: yeast growth competition, sequencing
Matrix: yeast
Setting: weak parent motif
Baseline: not given
Direction: higher = stronger binding
Parent: viral docking peptide; KGVKRKLFAEDSS
Substitution	normalised enrichment score
KGVKRKLFEEDSS [A9E]	0.124
KGVKRKLFAENSS [D11N]	-0.0511
KGVKEKLFAEDSS [R5E]	0.205
KGVKRKLFQEDSS [A9Q]	-0.0144
KGVKRQLFAEDSS [K6Q]	0.293
KGVKKKLLAEDSS [R5K F8L]	0.51
KAVKRKLFAEDSS [G2A]	0.118
KGCKRKLFAEDSS [V3C]	0.159

Single results of other studies
SMILES	tested on	assay	setting	measurement	value
CCC(=O)O[C@H]1CC[C@H]2[C@@H]3CCC4=CC(=O)CC[C@]4(C)[C@H]3CC[C@]12C	A-375		100 µM, 36 h	viability	-3.09%
CC(C)(C)c1cc(C=C(C#N)C#N)cc(Br)c1O	Cyclin-dependent kinase 5, with p25 (CDK5, Homo sapiens, UniProt Q00535)	enzyme activity, inhibitor	0.5 µM	remaining activity	98.2%

Some of these lines once more (sample 1):
Sequence	lacZ reporter activity
B3 (MDM2 RING domain)	0
KITELNPHLMCALCGGYFIDATTIVECLHSFCKTCIVRYLETNKYCPMCDVQVHKTRPLL (PCGF2 RING domain (UniProt P35227))	0
B4 (PJA2 RING domain)	2180
